Assay results pooled from the literature.
Protocols differ between the studies behind these lines. Several values in a cell are separate wells, animals, samples, runs or records. Numbers after ± are the reported error.

Under “injection site pain incidence”, O=C(Nc1cnccc1Cl)N1CCN(Cc2ccc3c(c2)OC(F)(F)O3)CC1 is recorded as 16.7% (multiple ascending dose; young men; 75 mg, treatment-emergent adverse events).
Under “patients with Constipation”, O=C(Nc1nc2cccc(-c3ccc(CN4CCS(=O)(=O)CC4)cc3)n2n1)C1CC1 is recorded as 0% (rheumatoid arthritis patients; oral, 100 mg twice daily, 4 weeks, TEAE regardless of relatedness).
For O=C(Cn1ccc([N+](=O)[O-])n1)N1CCCc2ccccc21, the logP was 2.01 (octanol/buffer; pH 11, known kinase inactives set).
CCc1cc(C(=O)NC)c2nccc(N3CCc4c(cc(Cn5ccnc5)cc4-c4cn(C)nc4C(F)(F)F)C3=O)c2c1 has a blood CHCM of 306 ± 5.2 g/L (Sprague Dawley rats; oral, 100 mg/kg once daily, 7 days).
Under “increase in Cmax”, CC(C)n1c(Nc2cccnc2)nc2cnc(Nc3ccc(N4CCN(C)CC4)cc3)nc21 is recorded as about 21% (human, male, plasma; oral, dose not given, with: gemfibrozil; relative to: without gemfibrozil).
Oc1ccc(/C=C/c2cc(O)cc(O)c2)cc1 gave a cholinesterase of 7 IU/L and 8 IU/L and < 5 IU/L (rat, azoxymethane-injected, blood at sacrifice; 100 mg/kg).
C=CC(=O)NC1CCN(c2ncc3ncnc(Nc4ccc(Oc5ccc6c(c5)ncn6C)c(C)c4)c3n2)CC1 gave a dose-normalised AUC(0-inf) of 223 nmol·h/L/mg (healthy male volunteers, plasma; oral tablet, 60 mg).
CCOc1c([C@H](C)n2nc(C)c3c(N)ncnc32)cc(Cl)c(F)c1[C@@H]1CNC(=O)C1 — result for “share of patients”: 98.1% (item: QRS ≤ 100 ms; previously treated B-cell malignancy; oral, dose not given, baseline below thresholds, all doses).
Under “time to injection-site reaction onset”, Cc1cc(/C=C/C#N)cc(C)c1Nc1ccnc(Nc2ccc(C#N)cc2)n1 is recorded as 0 days (human patients, all-treated set; intramuscular, dose not given, long-acting injection, median).
The drug concentration of Nc1nc(NC2CC2)c2ncn([C@H]3C=C[C@@H](CO)C3)c2n1 is reported as 129000 ± 26400 ng/g (Tat- transgenic mouse, hippocampus; subcutaneous osmotic pump, dose not given, 5 d).
The CSF concentration of Cn1cc([C@H]2C[C@H]3CSC(N)=N[C@@]3(c3ccc(F)cc3F)CO2)cn1 is reported as 673 nM (male 129/SVE mouse, CSF; subcutaneous, 50 mg/kg, 6 h).
With O=C1CC[C@H](N2Cc3cc(N4CCN(CC5CCN(c6ccc([C@@H]7c8ccc(O)cc8CC[C@@H]7c7ccccc7)cc6)CC5)CC4)ccc3C2=O)C(=O)N1 the intracellular concentration was 7.2 µM (EpiIntestinal microtissues; 40 µM, 3 h).
CN(C(=O)n1cnc(-c2ccc[n+]([O-])c2)c1)[C@H]1CC[C@H](O)CC1 has a tissue concentration of 8.5 ± 0.1 ng/g (rat, cortex; oral, 10 mg/kg daily for 5 days, 48 h).
COc1ccnc(C[S+]([O-])c2nc3ccc(OC(F)F)cc3[nH]2)c1OC (stereo not shown) gave a dose-normalised AUC of 8.7 µg·h/mL per mg/kg (human, plasma; oral, dose not given, median).
For C=CC[C@@H]1/C=C(\C)C[C@H](C)C[C@H](OC)[C@H]2O[C@@](O)(C(=O)C(=O)N3CCCC[C@H]3C(=O)O[C@H](/C(C)=C/[C@@H]3CC[C@@H](O)[C@H](OC)C3)[C@H](C)[C@@H](O)CC1=O)[C@H](C)C[C@@H]2OC, the food intake was 20.6 ± 1.8 g/24 h (rat, Wistar Kyoto, male; intraperitoneal, 0.5 mg/kg/day, day 18).
For COc1ccc(C(=O)O)cc1OS(=O)(=O)O, the CSF concentration was 18.8 nM (human, cerebrospinal fluid; concentration not given, median).
COc1c(OCCCN2CCOCC2)ccc2c1N=C(NC(=O)c1cnc(N)nc1)N1CCN=C21: “decrease in clearance” 20.4% (human; relative to: Japan over other regions).
COc1cc2c(cc1OC)C(=O)C(CC1CCN(Cc3ccccc3)CC1)C2 (stereo not shown) has a saliva production of -0.345 g (dental rolls; human subjects; dose not given; relative to: placebo).
CO[C@H]1CC[C@H](N2C(=O)CNc3ncc(-c4ccc(C(C)(C)O)nc4)nc32)CC1 has a Tmax of 1.55 h (patients, plasma; oral, 30 mg, day -1, median).
For Cc1ccc(Sc2ccccc2N2CCNCC2)c(C)c1, the diarrhoea incidence was 0% (healthy adult men; oral, 5 mg single dose, treatment-emergent adverse events).
Under “total brain concentration”, C[C@@H]1Cc2c([nH]c3ccccc23)[C@@H](c2c(F)cc(NC3CN(CCCF)C3)cc2F)N1CC(F)(F)CO is recorded as 88 nmol/L (mouse, non-tumour-bearing, brain; oral, dose not given, 7 days daily, with: fulvestrant s.c.).
COc1cc(OC)c(NC(=O)CSc2nnc(-c3ccncc3)n2-c2ccccc2)cc1Cl has a logP of 3.11 (octanol/buffer; pH 11).
CC(C)(C(=O)N1CCOc2c(C#N)cncc2C1)C(F)F — result for “subjects with adverse event”: 0% (item: abdominal pain; human; oral, 20 mg once daily, 14 days, multiple ascending dose).
CC[C@H](C)[C@H](NC(=O)[C@H](Cc1ccccc1)NC(=O)[C@H](CCC(=O)O)NC(=O)[C@H](CCCCNC(=O)COCCOCCNC(=O)COCCOCCNC(=O)CC[C@H](NC(=O)CCCCCCCCCCCCCCCCC(=O)O)C(=O)O)NC(=O)[C@H](C)NC(=O)[C@H](C)NC(=O)[C@H](CCC(N)=O)NC(=O)CNC(=O)[C@H](CCC(=O)O)NC(=O)[C@H](CC(C)C)NC(=O)[C@H](Cc1ccc(O)cc1)NC(=O)[C@H](CO)NC(=O)[C@H](CO)NC(=O)[C@@H](NC(=O)[C@H](CC(=O)O)NC(=O)[C@H](CO)NC(=O)[C@@H](NC(=O)[C@H](Cc1ccccc1)NC(=O)[C@@H](NC(=O)CNC(=O)[C@H](CCC(=O)O)NC(=O)C(C)(C)NC(=O)[C@@H](N)Cc1cnc[nH]1)[C@@H](C)O)[C@@H](C)O)C(C)C)C(=O)N[C@@H](C)C(=O)N[C@@H](Cc1c[nH]c2ccccc12)C(=O)N[C@@H](CC(C)C)C(=O)N[C@H](C(=O)N[C@@H](CCCNC(=N)N)C(=O)NCC(=O)N[C@@H](CCCNC(=N)N)C(=O)NCC(=O)O)C(C)C has a dose-normalised Cmax of 24 nmol/L/mg (LC-MS/MS; Chinese patients with type 2 diabetes, plasma; subcutaneous, single dose 0.114 mg, least-squares mean).
For O=C1c2ccncc2C(=O)c2c1[nH]c1ccccc21, “RV and pulmonary vascular structure” read “no effect” (no effect; rat, normal; intravenous, 1 mg/kg).
NC1(C(=O)N[C@@H](CCO)c2ccc(Cl)cc2)CCN(c2nc[nH]c3nccc2-3)CC1 — result for “incidence of Vomiting”: 20% (metastatic CRPC patients; 480 mg b.i.d., any grade, treatment-related, with: enzalutamide 160 mg daily).
The DT50 of COc1ccnc(C(=O)NC(CO)C(=O)O)c1O (racemic) is reported as 60.1 days (aerobic dark soil incubation; clay soil; 20 °C, modelling endpoint).
COc1cc(/C=C/C(=O)OC2C(O)CC(O)(C(=O)O)CC2O)ccc1O (stereo not shown) gave a CSF concentration of 1.8 nM (human, cerebrospinal fluid; concentration not given, mean).
Under “total plasma concentration”, COc1cc2c(Nc3ccc(Cl)c(Cl)c3F)ncnc2cc1OC[C@@H]1C[C@@H]2CN(C)C[C@@H]2C1 is recorded as 1330 ng/mL (FVB wild-type mouse; oral, 70 mg/kg, 2 h).
Under “change in uric acid”, OC[C@H]1O[C@@H](c2ccc(Cl)c(Cc3ccc(O[C@H]4CCOC4)cc3)c2)[C@H](O)[C@@H](O)[C@@H]1O is recorded as -0.29 µmol/L (Japanese type 1 diabetes patients, blood; 25 mg, day 28; relative to: baseline).
O=C(c1cccnc1-c1ccncc1)N1CCC(O)(Cc2ccccc2)CC1 gave an AUC(0-inf)/dose of 3.6 ng·h/mL/mg (healthy Japanese adults, plasma; oral, 200 mg single dose).
CCCCC[C@H](O)CC[C@@H]1[C@H]2Cc3cccc(OCC(=O)O)c3C[C@H]2C[C@H]1O: “geometric mean AUC(0-last)” 0.48 ng·h/mL (LC-MS/MS; Japanese PAH patients, plasma; inhaled, 54 µg, background ERA therapy).
Cc1cc(NC2CCN(C(=O)OC3CCN(C(=O)/C=C/CN(C)C)C3)CC2)n2ncc(C(C)C)c2n1 (stereo not shown) — result for “patients with adverse event”: 6% (Phase I dose escalation CTCAE v4.0, item: Hyponatremia; patients with advanced solid tumours; dose not given, all dose schedules any grade).
For CC(C)Oc1ccc2cc(C(=N)N)ccc2c1, the logP was 2.24 (octanol/buffer; pH 11, urokinase ligand set).
For C[Si]1(C)O[Si](C)(C)O[Si](C)(C)O[Si](C)(C)O[Si](C)(C)O1, the log KOA was 4.67 (0.001 to 0.003 µg/L, 34.8 °C).
O=C1NCCc2nc(OCc3cccc(F)c3)ccc21 — result for “Irwin test score”: 0 (item: Tremors; Sprague-Dawley rat, male; oral, 100 mg/kg, 1 h, score 0 none to 2 full; direction not given).
For O=C(Cc1ccc(OCCN2CCCC2)cc1)Nc1cc(C2CC2)[nH]n1, the logP was 2.86 (octanol/buffer; pH 11).
For CNC(=O)c1ccc(-c2cnc3ncc(Cc4ccc5ncccc5c4)n3n2)cc1F, “patients with adverse event” read 22% (item: Fatigue; gastric cancer patients; oral, 600 mg twice daily, expansion cohort, grade 3-4).
For C=CC(=O)N1CCC(Oc2cc3c(Nc4ccc(Cl)c(Cl)c4F)ncnc3cc2OC)CC1, the elimination half-life was 3.35 ± 0.94 h (Sprague-Dawley rat, male, plasma; oral, 2 mg/kg, 1 weeks pretreatment, with: Schisandrin A 20 mg/kg daily pretreatment).
COc1ccc2c(c1)CN(C(=O)CCN1CCC(Cc3ccccc3)CC1)CC[S@@+]2[O-]: “systolic blood pressure” 129 ± 12 mmHg (telemetry; conscious male beagle dogs; intravenous, 4 mg/kg, 24 h).
COc1ccc2[nH]c([S+]([O-])Cc3ncc(C)c(OC)c3C)nc2c1 (stereo not shown) has an AUC(0-inf) of 602 ± 295 ng·h/mL (healthy Chinese volunteers, plasma; oral, 20 mg, enteric-coated tablets, CYP2C19 rapid metabolizers).
For Cc1nc2c([nH]1)c(=O)n(C)c(=O)n2Cc1ccco1, the inhibition was 23.5 ± 3.61% (male rat liver microsomes; 50 µM, 3 h, with: DHA-Na 5 mg/L).
With COc1ncc(-c2nc3c(n2C(C)C)[C@H](c2ccc(Cl)cc2)N(c2cc(Cl)cn(C)c2=O)C3=O)c(OC)n1 the Cmax was 3200 ng/mL (LC-MS/MS; human, plasma; oral, 400 mg, cycle 2 day 1, high-dose arm).
CC[N+]([O-])(CC)CCNC(=O)c1c(C)[nH]c(/C=C2\C(=O)Nc3ccc(F)cc32)c1C has a serum concentration of 0.29 ng/mL (human, serum; 50 mg maintenance dose).
For O=C(O)CCC(=O)O.[2H]C([2H])([2H])Oc1cc(C)c2[nH]ccc2c1CN1CC[C@@H](C2CC2)C[C@H]1c1ccc(C(=O)O)cc1, the Vd/F was 56.8 L (LC-MS/MS, mean; human, plasma; 100 mg, single dose, fasting).
CC(Sc1nc2ccccc2[nH]1)C(=O)Nc1ccc(S(N)(=O)=O)cc1 (stereo not shown) has a logP of 1.59 (octanol/buffer; pH 11, known kinase inactives set).
CN[C@H]1C(=O)N[C@@H]2Cc3ccc(cc3)Oc3cc4cc(c3O[C@@H]3O[C@H](C(=O)O)[C@@H](O)[C@H](O)[C@H]3NC(=O)CCCCCCCCC(C)C)Oc3ccc(cc3Cl)[C@@H](O)[C@@H]3NC(=O)[C@H](NC(=O)[C@@H]4NC(=O)[C@@H](NC2=O)c2cc(cc(O)c2Cl)Oc2cc1ccc2O)c1ccc(O)c(c1)-c1c(O[C@H]2O[C@H](CO)[C@@H](O)[C@H](O)[C@@H]2O)cc(O)cc1[C@@H](C(=O)NCCCN(C)C)NC3=O: “second peripheral volume” 5.57 L (population PK model; paediatric patients; dose not given, reference weight 70 kg).
Under “decreased appetite incidence”, FC(F)(F)c1ccc(CNc2ccc(Cc3c[nH]c4ncc(Cl)cc34)cn2)cn1 is recorded as 39% (patients with advanced solid tumours; oral, 1000 mg/day, non-TGCT cohort, all grades).
With O=C(O)C[C@H](O)C[C@H](O)/C=C/c1c(C2CC2)nc2ccccc2c1-c1ccc(F)cc1 the AUC(0-12h) was 0.359 µM·h (FVB wild-type mouse, plasma; oral, 5 mg/kg, geometric mean, with: rifampin 20 mg/kg oral).
For CNC(=O)c1cc(Oc2ccc(NC(=O)Nc3cc(C(C)(C)C)nn3-c3ccc4ncccc4c3)c(F)c2)ccn1, “patients with musculoskeletal disorder AE” read 7% (item: worst grade 2; human; oral, dose not given, cycles 1 and 2, Low AUC(0-4 h) subgroup).
For COc1ccc(OCC(=O)Nc2cc(-c3nn4c(C)nnc4s3)ccc2C)cc1, the logP was 2.71 (octanol/buffer; pH 11, known kinase inactives set).
The AUC(0-24 h) of Cl.[2H]C([2H])([2H])CC(=O)c1cnc(NC(=O)C2CC2)cc1Nc1cccc(-c2ncn(C([2H])([2H])[2H])n2)c1OC is reported as 9380 ng·h/mL (geometric mean; human; oral, 100 mg single dose, fasted, liquid).
Under “Monocytes count ratio”, CCc1cc2ncc(CN3CCN(c4ccc(C(=O)NC)nc4)CC3)cc2[nH]c1=O is recorded as 0.43 (female rat, blood; oral, 50 mg/kg/day, 4 weeks; relative to: vehicle control).
For CN[C@@H](C)C(=O)N[C@H]1CN(S(=O)(=O)c2cccc(S(=O)(=O)N3CC[C@H]4CC[C@@H](C(=O)NC(c5ccccc5)c5ccccc5)N4C(=O)[C@@H](NC(=O)[C@H](C)NC)C3)c2)CC[C@H]2CC[C@@H](C(=O)NC(c3ccccc3)c3ccccc3)N2C1=O, the AUC(0-t) was 1290 ± 752 ng·h/mL (LC-MS/MS; human, advanced solid tumours, plasma; intravenous, 45 mg weekly, day 15).
With C[C@@H](Oc1ccc(S(C)(=O)=O)cc1C(=O)N1C[C@@H]2C[C@]2(c2cc(C(F)(F)F)on2)C1)C(F)(F)F the Vz/F was 338 L (LC-MS/MS; elderly human subjects, plasma; oral, 25 mg once daily, steady state, multiple doses).
